Measurements gathered from unrelated publications.
Lines come from different studies, so protocols differ. “And” joins repeats or separate records; there may be more than shown.
Target: Mitogen-activated protein kinase kinase kinase 1 (MAP3K1, Homo sapiens, UniProt Q13233)

The remaining binding of `CNC1C[S+]2CC[S+]3CC[S+](C1)[Ru-4]321([N]=C=S)[n]2c3ccc(OC)cc3c3c4c(c5cc(F)c[n+]1c5c32)C(=O)NC4=O` (centres unmarked) is reported as 99% (KinomeScan; 0.1 µM; reference: untreated).
`CCn1cc(C(=O)O)c(=O)c2c(N)c(F)c(NC3CCCCC3)cc21` has an inhibition of 23.8% (kinase activity; 0.1 µM, with: ATP at Km).
The inhibition of `C=CC(=O)Nc1cc(-c2nn(C3CCN(CCNC(=O)[C@H](C)CCC45CC6CC(CC(C6)C4)C5)CC3)c3ncnc(N)c23)ccc1Oc1ccccc1` is reported as 30.3% (inhibitor, KiNativ profiling; biochemical; 2 µM).
With `CS(=O)(=O)Nc1cccc(-c2csc3cnc(Nc4ccc(N5CCN(CCCCCOc6cccc7c6C(=O)N(C6CCC(=O)NC6=O)C7=O)CC5)cc4)nc23)c1` (centres unmarked) the inhibition was 8.62% (probe labelling, inhibitor, KiNativ chemoproteomics; MOLT-4; 1 µM).
`Cc1ccc(-c2c(/C=C(\C#N)C(=O)NC(C)C)n(CCCO)c3ncnc(N)c23)cc1` has a remaining binding of 2.7% (cell-free assay, competition with immobilised ligand; 1 µM).
For `C=CC(=O)N1CCCC(n2c(=O)c3ncccc3n(Cc3ccc(Oc4ccccc4)cc3)c2=O)C1` (centres unmarked), the remaining binding was 72% (cell-free assay, competition with immobilised ligand; 1 µM).
With `NC(=O)[C@@H](O)C[C@H]1CCc2sc3ncnc(O[C@H]4CC[C@H](N5CCOCC5)CC4)c3c21` the inhibition was 1% (enzyme activity, inhibitor; 10 µM).
`COc1cc(Nc2nc(C)cc(-c3cnn4nc(OC)ccc34)n2)cc(C(F)(F)F)c1` has a remaining activity of 86% (inhibitor; 1 µM; reference: control).
For `Nc1ncc2c(n1)-c1c([nH]c3ccc(C4=CCOCC4)cc13)CCC2`, the remaining binding was 87% (binding, competition with immobilised ligand; 1 µM).
With `NC(=O)C[C@H]1CCc2sc3ncnc(O[C@H]4CC[C@H](N5CCOCC5)CC4)c3c21` the inhibition was -3% (enzyme activity, inhibitor; 10 µM).
`CC(C)=CC1OC(C)(C)C2C=C3C(=O)C(Cl)=CC(O)C3C3C(O)C4OC4C(=O)C132` (centres unmarked) gave a remaining binding of 93% (cell-free assay, competition with immobilised ligand; 10 µM).
`CNC(=O)C1CCN(c2cc(C)c(F)cc2NC(=O)c2ccc(-c3cc(O)ccc3C)c(C)c2)CC1` has a remaining binding of 100% (binding, competition with immobilised ligand; 1 µM).
With `Cc1cnc2nc1Nc1cccc(c1)COC/C=C/COCc1cc(ccc1OCCN1CCOCC1)N2` the remaining binding was 100% (binding; 0.1 µM).
For `COc1cc(Nc2nccc(-c3cnn4nc(OC)ccc34)n2)cc(C(F)(F)F)c1`, the remaining binding was 100% (binding, competition with immobilised ligand; 1 µM).
With `CCN1CCN(Cc2ccc(C(=O)Nc3ccc(C)c(NCc4cnc5[nH]ccc5c4OC)c3)cc2C(F)(F)F)CC1` the remaining binding was 27% (binding, competition with immobilised ligand; 1 µM).
`Cn1cc(-c2cnc3ccc(NC(=O)Nc4ccc5sccc5c4)cc3n2)cn1` gave an inhibition of 17.2% (kinase binding, KiNativ profiling, refers to: Lys2 peptide; PANC-1 lysate; 2.5 µM).
The remaining binding of `C=CC(=O)N1CCc2ccc(-n3c(=O)ccc4cnc5ccc(-c6cnn(C)c6)cc5c43)cc21` is reported as 96% (KINOMEscan; 1 µM; reference: DMSO control).
`N[C@H]1CC[C@H](Nc2nccc(-c3cccnc3Oc3ccc(NC(=O)NC4CC4)c4ccccc34)n2)CC1` — result for “log2 LFQ intensity”: 24.5 and 24.4 (kinobead competition pulldown; HEK293/HCT116 lysate mixture; 10 µM, 1 h, 4 °C; lower = stronger competition).
`COc1c(Cl)cccc1Nc1c(-c2ccncc2C#C[C@@]2(C)CCCN2C(=O)/C=C/CN(C)C)[nH]c2c1C(=O)NCC2` gave a remaining binding of 89% (binding, competition with immobilised ligand; 3 µM).
With `Nc1ncc(-c2cc(-c3cnn(CC(F)(F)F)c3)ncc2F)nc1C(=O)NC1CNCC(F)C1` (centres unmarked) the remaining activity was 75.3% (enzyme activity; 1 µM; reference: DMSO control).

Repeated from above:
`CCn1cc(C(=O)O)c(=O)c2c(N)c(F)c(NC3CCCCC3)cc21` has an inhibition of 23.8% (kinase activity; 0.1 µM, with: ATP at Km).
